Results gathered from unrelated publications.
Each numbered part is a random draw from the data of one study; scales do not carry over between parts. Positions count from the first letter of the parent shown.

Study 1 — method: RNA Bind-n-Seq; molecule type: RNA; matrix: in vitro; concentration: 100 nM; relative to: input RNA pool; direction: higher = stronger binding
Target: RING finger protein unkempt homolog, zinc fingers 1-6, SBP tag (UNK, Homo sapiens, UniProt Q9C0B0, residues 30-357)
Sequence of UniProt Q9C0B0 (30-357, looked up): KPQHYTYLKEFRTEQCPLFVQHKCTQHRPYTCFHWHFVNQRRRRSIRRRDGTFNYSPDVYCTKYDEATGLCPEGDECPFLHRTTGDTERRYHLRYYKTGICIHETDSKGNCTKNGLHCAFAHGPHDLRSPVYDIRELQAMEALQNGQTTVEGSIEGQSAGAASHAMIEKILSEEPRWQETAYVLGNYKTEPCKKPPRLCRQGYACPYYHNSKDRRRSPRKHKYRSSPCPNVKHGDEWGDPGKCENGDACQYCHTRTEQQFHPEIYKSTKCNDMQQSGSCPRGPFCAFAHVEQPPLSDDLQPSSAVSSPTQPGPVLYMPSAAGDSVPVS
Notes: RNA with constant flanks, vertebrate orthologous sites, ends assumed
`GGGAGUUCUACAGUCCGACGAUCUCUCCUUUCUUUUCCCUUCCUUUUUUUCCUUUUUGGGGGGUACAGUUUGCUCUCUCCCAAUAGUGAUCGUAACAAACUGAUCUGUUCUGGGUGUUGCUCUAGUGACAUGCGAUUCUAUAGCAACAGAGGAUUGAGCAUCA` has a bound/input enrichment of 1.1 ratio.
For `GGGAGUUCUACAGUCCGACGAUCCUCCCCGGUACCCCUAAAGUAGAACUUUUUAAAAUUAUGUCACCACCACUUCUAAAACUUUAGCAAUAUUAGAAGAAAAUGCUAAUGAAGUAAGAAAUUUUGCUCAUUGUUCUGCAAACCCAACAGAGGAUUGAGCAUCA`, the bound/input enrichment was 0.817 ratio.
`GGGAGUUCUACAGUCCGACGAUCCCCUCUGAACCCCAUAUCUUCCGUCUCAUAGUGCAGAAGUAGUCUUUUCAAUUAUAUUAUUCGUGGACUCGUUUUAAUUUUAGGGAAACUUUUCAGUACAGAUACUGUGAGCUUACAUGGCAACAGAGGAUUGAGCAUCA` gave a bound/input enrichment of 3.1 ratio.
The bound/input enrichment of `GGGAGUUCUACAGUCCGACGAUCCUGUAAACCUCUGUUUAUGUGCAAGUGUGUGUGCGGGCGUGUGGGUGUGUGUGUGGGUGUGUGUUUGGUUCUUGCACAAAAUAAUGUACUUUAUGUGUUUGCGUACAAUGGGACCGAUUUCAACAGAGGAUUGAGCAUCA` is reported as 0.449 ratio.
`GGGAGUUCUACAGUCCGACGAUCGGUAGUCUGCGUAGGGGUGAGCAUUAACUUAUAAAGGAAUGAAAUGCUAAAAAAUCCUAUUAGUACUAAGUUUAGUGGGAGAAUUUACAUAAACUCUUUUUACAUAAUUCUAAAAUGAAACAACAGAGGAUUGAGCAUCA` has a bound/input enrichment of 0.57 ratio.
The bound/input enrichment of `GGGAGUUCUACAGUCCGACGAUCGUGACUUUGGAAGUCCGCACAGUGUCAGUGCAGAUACUACUUAGUCCGGGGCCUGGUGGCUGGGCUCAUUUUCUUCUUUCCAAUCUGAGGUCUCUGCCACAAACAUGCUCCGCCACAUCUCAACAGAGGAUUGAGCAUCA` is reported as 0.456 ratio.
`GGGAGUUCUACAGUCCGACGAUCCGUUCAGUCCCCUGGGCCGGGACGGGUUUUUUUUUAAGUCUGAAAUUUAAACUGUGCUUGUAGGAGACUGUAACCUUUUUGUCUCUCCUUUUUUUUUUUUUUUUUAACAAACACCCUCCACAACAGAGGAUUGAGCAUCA` has a bound/input enrichment of 0.944 ratio.
The bound/input enrichment of `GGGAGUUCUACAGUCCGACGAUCGGGGCGGCCGGUGGGGGAAUCCCAUGCCCUGGCCGGCCACCCCUCCCUGCUACCCGCUCCUAGUUUUUUUUUUUUUUAACCACCAUGUGAUUAAGGUCGGCGCUGCCUCCCCCGACCCGCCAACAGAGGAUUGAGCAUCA` is reported as 5.88 ratio.
For `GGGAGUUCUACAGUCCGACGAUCCCCCGAUUUUAGAUGUGAUAUCUAGGCUCUCAUUCUAGUUUGUUUUUGUCUUUUCUUGUUUAGAUACCAGUCUUUUAAAUUCUUGCAUUUUAGUAAGAAAGCUACCUUUUUAUGGAUGUUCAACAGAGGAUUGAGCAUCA`, the bound/input enrichment was 2.37 ratio.
`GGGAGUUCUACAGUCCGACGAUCUUGGGACCAGCUCUCCAAAUAGGAAUAGUAGUAAAAGAAAUAAACAAAAUGAUAUUUGUAUAGAAAAAACAGAAGUUAAAUCAUGCAAGGGAAAUGCUGCCAGCGUUGCAGGCCCUAAAGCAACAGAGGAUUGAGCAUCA` has a bound/input enrichment of 1.15 ratio.
With `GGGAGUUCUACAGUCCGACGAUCUUCUUUUCCAGGUGGGAUGUAGUGGAAAAGUAAUAGGAAUUGAUCACAUUAAAGAGCUAGUUGAUGACUCCAUAAAUAAUGUCAGAAAGGACGACCCAACGCUUCUGUCCUCUGGCAGGGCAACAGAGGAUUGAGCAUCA` the bound/input enrichment was 0.445 ratio.

Study 2 — method: protein binding microarray; molecule type: double-stranded DNA, one strand shown; matrix: in vitro; concentration: not given; relative to: not given; direction: higher = stronger binding
Target: Histone acetyltransferase KAT6A, both winged helices, GST fusion (KAT6A, Homo sapiens, UniProt Q92794, residues 1-181)
Notes: 8-mer, flanks averaged, mean of 2 arrays, mostly near background
Target sequence (chain): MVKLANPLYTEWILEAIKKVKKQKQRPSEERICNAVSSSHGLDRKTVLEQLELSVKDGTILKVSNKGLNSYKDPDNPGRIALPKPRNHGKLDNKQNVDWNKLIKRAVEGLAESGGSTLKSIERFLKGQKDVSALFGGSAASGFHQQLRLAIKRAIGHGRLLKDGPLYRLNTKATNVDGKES
With `CTGTACAG` the E-score was -0.0146.
`AGCGGTGG` gave an E-score of 0.154.
The E-score of `GTCATTGA` is reported as -0.113.
`ATCCCTAA` has an E-score of -0.138.
For `GAGCAGGA`, the E-score was -0.098.
With `CTCGGACC` the E-score was 0.0704.
With `CGCTTCGA` the E-score was 0.154.
`GTGGTGGA` gave an E-score of -0.127.
With `AAATAGGT` the E-score was -0.232.
`TGGTGACA` gave an E-score of -0.0488.
For `CGCTGAGC`, the E-score was 0.19.
`CACCGCGC` has an E-score of 0.382.
`GCGATAGC` gave an E-score of 0.104.
The E-score of `ACGGTGAG` is reported as 0.0454.
For `CAACGGAA`, the E-score was 0.242.
For `AGCTTGAG`, the E-score was -0.159.
`CAGAGTGC` gave an E-score of -0.124.
With `CAATCTGA` the E-score was 0.0413.
`ATTTCGAC` has an E-score of 0.055.
With `AGCCATGC` the E-score was -0.106.
For `ATGAGCCC`, the E-score was -0.0496.
With `AGTGGCTC` the E-score was -0.105.

Study 3 — method: universal PBM; molecule type: double-stranded DNA, one strand shown; matrix: in vitro; concentration: not given; direction: higher = stronger binding
Target: Sal-like protein 4, full length isoform B (SALL4, Homo sapiens, UniProt Q9UJQ4-2, residues 1-616)
Notes: 8-mer, flanks averaged, mean of replicates
Residues (chain): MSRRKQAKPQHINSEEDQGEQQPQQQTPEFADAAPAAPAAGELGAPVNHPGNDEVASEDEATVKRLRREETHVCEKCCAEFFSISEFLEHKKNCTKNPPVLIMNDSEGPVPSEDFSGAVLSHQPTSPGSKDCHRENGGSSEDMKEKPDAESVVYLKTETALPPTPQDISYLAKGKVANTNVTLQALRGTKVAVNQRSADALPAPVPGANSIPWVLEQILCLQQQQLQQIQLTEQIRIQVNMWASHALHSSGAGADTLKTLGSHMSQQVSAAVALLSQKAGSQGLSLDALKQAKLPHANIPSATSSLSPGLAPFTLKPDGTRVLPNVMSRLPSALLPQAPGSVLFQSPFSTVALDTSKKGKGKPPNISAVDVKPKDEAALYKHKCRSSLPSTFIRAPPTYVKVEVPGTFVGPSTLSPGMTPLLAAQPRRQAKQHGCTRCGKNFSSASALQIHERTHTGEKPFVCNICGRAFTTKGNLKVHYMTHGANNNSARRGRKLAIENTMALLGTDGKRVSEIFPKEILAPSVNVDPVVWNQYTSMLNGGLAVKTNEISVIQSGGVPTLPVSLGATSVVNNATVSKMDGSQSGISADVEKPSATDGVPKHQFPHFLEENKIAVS
With `ACTTGAAA` the E-score was 0.17.
With `CAAACTGG` the E-score was -0.278.
For `AAGTGTGC`, the E-score was 0.0895.
With `AGGGGGTA` the E-score was -0.0586.
For `GTGTTAAC`, the E-score was 0.138.
`CAGGCTCG` gave an E-score of -0.236.
The E-score of `ATCCGTTG` is reported as 0.0169.
For `CTTAAGAA`, the E-score was 0.242.
For `ATCCCAGA`, the E-score was -0.123.
For `CACTTGGG`, the E-score was 0.0365.
`CTCCTACA` gave an E-score of 0.0624.
With `AAGCACGT` the E-score was 0.0399.
`AGCGACCC` gave an E-score of -0.285.
`CCCCTTCC` has an E-score of -0.244.
With `ATGTTAAT` the E-score was 0.291.
For `CGCATAAA`, the E-score was 0.246.

Study 4 — method: DHFR PCA, deep sequencing; matrix: yeast; with: (+)-ABA 58 µM; relative to: wild-type fitted maximum; direction: higher = stronger binding
Target: ABI1, truncated, D143A, DHFR fusion (Arabidopsis thaliana)
Notes: methotrexate growth selection, single substitutions
Starting sequence: PYL1, truncated, DHFR fusion (Arabidopsis thaliana); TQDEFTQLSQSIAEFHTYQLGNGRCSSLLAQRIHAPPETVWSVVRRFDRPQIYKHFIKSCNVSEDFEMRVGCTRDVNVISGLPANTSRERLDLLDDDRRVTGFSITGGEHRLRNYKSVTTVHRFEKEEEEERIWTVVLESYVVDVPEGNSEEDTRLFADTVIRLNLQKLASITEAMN; partner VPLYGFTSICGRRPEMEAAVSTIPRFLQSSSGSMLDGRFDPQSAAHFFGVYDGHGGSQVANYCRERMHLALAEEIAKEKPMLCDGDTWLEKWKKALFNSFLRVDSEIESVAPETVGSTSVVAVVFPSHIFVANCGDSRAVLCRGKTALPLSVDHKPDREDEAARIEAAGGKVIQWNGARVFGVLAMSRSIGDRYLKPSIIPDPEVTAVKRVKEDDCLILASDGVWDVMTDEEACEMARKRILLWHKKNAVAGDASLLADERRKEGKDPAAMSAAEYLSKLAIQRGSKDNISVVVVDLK
`N114D` — result for “relative binding score”: 47%.
For `Q31G`, “relative binding score” read 12.4%.
Under “relative binding score”, `Q167I` is recorded as 67.9%.
`A84H`: “relative binding score” 28.6%.
`F157L` — result for “relative binding score”: 73.5%.
Under “relative binding score”, `V62K` is recorded as 25.1%.
Under “relative binding score”, `E152T` is recorded as 80%.
`R132D`: “relative binding score” 103%.
`R123G`: “relative binding score” 93.2%.
Under “relative binding score”, `E38K` is recorded as 66.4%.
`E64G`: “relative binding score” 84.3%.
`W41N`: “relative binding score” -3.6%.
`T39H`: “relative binding score” 80.1%.
`G23N`: “relative binding score” 88.7%.
`E128W` — result for “relative binding score”: 76.9%.
For `E130P`, “relative binding score” read 105%.
`D95C` — result for “relative binding score”: 64%.
Under “relative binding score”, `V62I` is recorded as 78.4%.
For `D95Q`, “relative binding score” read 46.4%.
Under “relative binding score”, `W41I` is recorded as 14.2%.
For `I52E`, “relative binding score” read 79.4%.

Repeated from above (study 2):
`GCGATAGC` gave an E-score of 0.104.
With `AGTGGCTC` the E-score was -0.105.
With `AGCCATGC` the E-score was -0.106.
For `ATGAGCCC`, the E-score was -0.0496.
With `AAATAGGT` the E-score was -0.232.
With `CAATCTGA` the E-score was 0.0413.
